Measured values pooled from the literature.
Numbered parts are unrelated; each lists some results of a single study. Positions count from the first letter of the parent shown.

Set 1 — method: protein binding microarray; molecule type: double-stranded DNA, one strand shown; medium: in vitro; concentration: not given; relative to: not given; direction: higher = stronger binding
Target: Histone acetyltransferase KAT6A, winged helix 1, GST fusion (KAT6A, Homo sapiens, UniProt Q92794, residues 1-85)
Setting: 8-mer, flanks averaged, mean of 2 arrays, mostly near background
Residues (chain): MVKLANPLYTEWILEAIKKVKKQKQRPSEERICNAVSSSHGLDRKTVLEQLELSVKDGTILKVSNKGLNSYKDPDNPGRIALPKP
| Strand | E-score |
| --- | --- |
| GAGGGACA | -0.168 |
| ATAATCCA | -0.0864 |
| CTTAGCAA | -0.158 |
| ATAACGCG | 0.291 |
| ACCTGAAA | -0.132 |
| ATTGCAGC | -0.0272 |
| GAAGCCAC | -0.0446 |
| CGACGAAG | -0.0559 |

Set 2 — method: aptamer microarray, sandwich; molecule type: DNA with 2'F-ANA; medium: in vitro; concentration: 200 nM; together with: Cy3 exosite-II aptamer, 400 nM; direction: higher = stronger binding; strand: GGTTGGTGTGGTTGG
Target: Prothrombin, mature alpha-thrombin (F2, Homo sapiens, UniProt P00734)
Setting: whole 15-mer aptamer, many near background
| Modification | mean fluorescence intensity |
| --- | --- |
| 2'F-ANA at 2 4 5 9 10 11 12 13 14 | 47.9 a.u. |
| 2'F-ANA at 1 3 5 6 7 11 13 | 53.4 a.u. |
| 2'F-ANA at 1 3 4 5 9 10 14 | 60.8 a.u. |
| 2'F-ANA at 1 4 5 7 9 12 | 125 a.u. |
| 2'F-ANA at 1 5 6 10 11 13 15 | 47.8 a.u. |
| 2'F-ANA at 1 2 4 5 6 11 12 15 | 80.8 a.u. |
| 2'F-ANA at 1 2 3 5 6 12 14 | 45.9 a.u. |
| 2'F-ANA at 3 4 7 13 | 651 a.u. |

Single results of other studies
P1: PafA, mature enzyme, eGFP fusion (Elizabethkingia meningoseptica, UniProt Q9KJX5); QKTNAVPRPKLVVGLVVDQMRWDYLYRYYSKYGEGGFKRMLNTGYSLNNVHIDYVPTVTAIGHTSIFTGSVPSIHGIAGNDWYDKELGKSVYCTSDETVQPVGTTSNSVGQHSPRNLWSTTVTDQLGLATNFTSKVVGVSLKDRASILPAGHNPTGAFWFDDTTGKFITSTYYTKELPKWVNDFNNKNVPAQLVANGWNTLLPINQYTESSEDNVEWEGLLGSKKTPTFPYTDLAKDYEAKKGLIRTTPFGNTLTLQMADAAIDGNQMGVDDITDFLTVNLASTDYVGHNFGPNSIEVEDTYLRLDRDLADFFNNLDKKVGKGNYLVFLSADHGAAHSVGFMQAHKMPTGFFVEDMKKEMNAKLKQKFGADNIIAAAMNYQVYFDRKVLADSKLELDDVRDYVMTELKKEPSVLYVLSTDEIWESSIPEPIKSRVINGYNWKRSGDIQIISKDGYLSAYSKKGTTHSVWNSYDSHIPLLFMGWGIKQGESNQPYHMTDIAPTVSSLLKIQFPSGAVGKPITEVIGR
| Substance | tested on | test | system | conditions | scale | measurement | value |
| --- | --- | --- | --- | --- | --- | --- | --- |
| ERLIN1 (Homo sapiens, UniProt O75477) | ERLIN2 (Homo sapiens, UniProt O94905) | cross-linking MS | cells | together with: BSPNO | – | cross-linked residues | K228 to K241 |
| P1 T521G | tungstate, free oxyanion | microfluidic competitive inhibition | in vitro, cell-free expressed | not given, derived from inhibition constants, unchanged parent 2230 nM | lower = stronger binding | oxyanion analog dissociation constant | 2030 nM |

A few entries again (single results of other studies):
| Substance | tested on | test | system | conditions | scale | measurement | value |
| --- | --- | --- | --- | --- | --- | --- | --- |
| P1 T521G | tungstate, free oxyanion | microfluidic competitive inhibition | in vitro, cell-free expressed | not given, derived from inhibition constants, unchanged parent 2230 nM | lower = stronger binding | oxyanion analog dissociation constant | 2030 nM |
| ERLIN1 (Homo sapiens, UniProt O75477) | ERLIN2 (Homo sapiens, UniProt O94905) | cross-linking MS | cells | together with: BSPNO | – | cross-linked residues | K228 to K241 |
